Measured values of several laboratories.
Parts stem from different laboratories: compare values within a part only. Several values in a cell are separate wells, animals, samples, runs or records.
UniProt Q9NWZ3, sequence (whole entry, looked up): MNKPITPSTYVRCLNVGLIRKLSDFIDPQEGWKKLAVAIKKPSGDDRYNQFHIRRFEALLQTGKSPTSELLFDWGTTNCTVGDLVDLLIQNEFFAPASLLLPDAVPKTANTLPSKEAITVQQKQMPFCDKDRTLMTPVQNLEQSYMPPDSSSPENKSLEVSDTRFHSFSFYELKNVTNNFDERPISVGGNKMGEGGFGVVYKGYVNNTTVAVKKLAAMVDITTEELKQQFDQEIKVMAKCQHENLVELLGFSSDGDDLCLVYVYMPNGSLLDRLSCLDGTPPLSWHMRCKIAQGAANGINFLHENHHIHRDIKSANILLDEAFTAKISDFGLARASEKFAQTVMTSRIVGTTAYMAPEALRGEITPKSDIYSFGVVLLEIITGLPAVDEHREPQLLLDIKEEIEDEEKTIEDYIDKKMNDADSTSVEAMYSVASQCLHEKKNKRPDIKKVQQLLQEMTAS
UniProt P53778, sequence (whole entry, looked up): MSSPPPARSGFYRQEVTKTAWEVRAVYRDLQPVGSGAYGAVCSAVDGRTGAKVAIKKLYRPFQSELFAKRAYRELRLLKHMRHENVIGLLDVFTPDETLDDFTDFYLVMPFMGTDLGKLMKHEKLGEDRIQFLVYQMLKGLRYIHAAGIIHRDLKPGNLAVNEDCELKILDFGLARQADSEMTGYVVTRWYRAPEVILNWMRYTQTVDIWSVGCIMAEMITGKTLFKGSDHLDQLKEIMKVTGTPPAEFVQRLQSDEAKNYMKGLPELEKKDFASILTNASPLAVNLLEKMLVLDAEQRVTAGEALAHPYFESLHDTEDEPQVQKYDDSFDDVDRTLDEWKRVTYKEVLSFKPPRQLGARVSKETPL
UniProt P07948, sequence (whole entry, looked up): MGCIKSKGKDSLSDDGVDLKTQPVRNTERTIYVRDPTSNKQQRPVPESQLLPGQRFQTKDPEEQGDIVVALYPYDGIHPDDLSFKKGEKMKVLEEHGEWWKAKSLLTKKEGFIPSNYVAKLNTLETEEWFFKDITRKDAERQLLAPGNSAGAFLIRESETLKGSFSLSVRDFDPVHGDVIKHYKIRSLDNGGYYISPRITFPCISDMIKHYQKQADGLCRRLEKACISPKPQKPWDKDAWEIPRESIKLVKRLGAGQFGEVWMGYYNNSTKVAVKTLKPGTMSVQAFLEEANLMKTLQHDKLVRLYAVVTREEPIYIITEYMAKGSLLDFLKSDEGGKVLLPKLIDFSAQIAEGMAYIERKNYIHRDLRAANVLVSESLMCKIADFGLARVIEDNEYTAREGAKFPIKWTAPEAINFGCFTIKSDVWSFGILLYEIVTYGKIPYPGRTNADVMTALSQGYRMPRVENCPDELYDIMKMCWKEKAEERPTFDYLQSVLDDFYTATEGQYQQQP
UniProt P45984, sequence (whole entry, looked up): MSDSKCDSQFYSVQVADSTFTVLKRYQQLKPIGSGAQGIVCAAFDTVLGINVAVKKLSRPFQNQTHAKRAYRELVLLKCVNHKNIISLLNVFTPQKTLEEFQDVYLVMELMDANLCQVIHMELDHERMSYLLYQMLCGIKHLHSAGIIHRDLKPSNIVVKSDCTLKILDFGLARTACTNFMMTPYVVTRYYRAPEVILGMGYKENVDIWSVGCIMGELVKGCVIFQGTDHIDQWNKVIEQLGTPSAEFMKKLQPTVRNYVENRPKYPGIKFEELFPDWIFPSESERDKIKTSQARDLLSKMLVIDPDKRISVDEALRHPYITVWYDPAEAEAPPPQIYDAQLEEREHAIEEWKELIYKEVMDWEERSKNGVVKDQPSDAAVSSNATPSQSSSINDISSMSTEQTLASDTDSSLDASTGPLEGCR
UniProt P41240, sequence (whole entry, looked up): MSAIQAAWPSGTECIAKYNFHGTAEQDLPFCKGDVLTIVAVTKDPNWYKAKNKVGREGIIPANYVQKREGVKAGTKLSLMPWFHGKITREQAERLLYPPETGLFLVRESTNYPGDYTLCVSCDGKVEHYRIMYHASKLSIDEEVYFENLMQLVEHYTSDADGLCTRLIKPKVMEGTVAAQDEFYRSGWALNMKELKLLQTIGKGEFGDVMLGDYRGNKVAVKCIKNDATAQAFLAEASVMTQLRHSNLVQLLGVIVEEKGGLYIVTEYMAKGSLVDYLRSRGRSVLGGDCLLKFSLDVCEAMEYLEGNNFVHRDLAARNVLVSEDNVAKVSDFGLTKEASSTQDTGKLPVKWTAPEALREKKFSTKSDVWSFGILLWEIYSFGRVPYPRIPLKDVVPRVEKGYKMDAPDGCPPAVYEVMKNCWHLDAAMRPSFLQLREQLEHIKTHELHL
UniProt Q9Y243, sequence (whole entry, looked up): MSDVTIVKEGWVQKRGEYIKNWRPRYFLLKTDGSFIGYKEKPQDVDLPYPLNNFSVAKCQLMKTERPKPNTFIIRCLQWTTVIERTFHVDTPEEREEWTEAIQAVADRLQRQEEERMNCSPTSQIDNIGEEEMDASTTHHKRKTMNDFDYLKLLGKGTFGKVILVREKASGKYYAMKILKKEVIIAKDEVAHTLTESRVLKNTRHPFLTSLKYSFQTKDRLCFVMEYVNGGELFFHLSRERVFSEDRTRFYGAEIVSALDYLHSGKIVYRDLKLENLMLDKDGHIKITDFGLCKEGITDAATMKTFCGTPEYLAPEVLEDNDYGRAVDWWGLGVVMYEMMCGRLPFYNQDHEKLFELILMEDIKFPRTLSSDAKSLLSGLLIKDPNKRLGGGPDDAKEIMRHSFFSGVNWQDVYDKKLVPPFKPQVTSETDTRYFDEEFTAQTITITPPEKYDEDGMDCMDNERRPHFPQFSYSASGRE
UniProt P68400, sequence (whole entry, looked up): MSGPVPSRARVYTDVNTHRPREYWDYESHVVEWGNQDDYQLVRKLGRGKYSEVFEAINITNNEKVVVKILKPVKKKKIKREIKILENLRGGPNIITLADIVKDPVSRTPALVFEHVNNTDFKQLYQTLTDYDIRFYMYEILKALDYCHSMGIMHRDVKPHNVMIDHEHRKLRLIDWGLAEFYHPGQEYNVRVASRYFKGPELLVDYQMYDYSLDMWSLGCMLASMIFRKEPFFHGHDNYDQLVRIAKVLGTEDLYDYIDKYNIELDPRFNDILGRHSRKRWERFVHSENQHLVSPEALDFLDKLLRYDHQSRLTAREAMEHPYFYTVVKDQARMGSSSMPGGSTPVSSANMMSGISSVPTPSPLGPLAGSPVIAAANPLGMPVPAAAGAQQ
UniProt P52564, sequence (whole entry, looked up): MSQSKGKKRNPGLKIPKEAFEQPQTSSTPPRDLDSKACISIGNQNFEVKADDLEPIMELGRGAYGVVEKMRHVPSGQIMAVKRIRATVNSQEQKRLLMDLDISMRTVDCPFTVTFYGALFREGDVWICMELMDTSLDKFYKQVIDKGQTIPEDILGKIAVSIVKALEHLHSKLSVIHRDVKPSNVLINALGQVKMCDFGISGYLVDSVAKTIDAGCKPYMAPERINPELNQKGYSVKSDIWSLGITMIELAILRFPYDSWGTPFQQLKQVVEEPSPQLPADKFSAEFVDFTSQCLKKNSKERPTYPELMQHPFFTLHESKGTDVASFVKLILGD
UniProt Q06187, sequence (whole entry, looked up): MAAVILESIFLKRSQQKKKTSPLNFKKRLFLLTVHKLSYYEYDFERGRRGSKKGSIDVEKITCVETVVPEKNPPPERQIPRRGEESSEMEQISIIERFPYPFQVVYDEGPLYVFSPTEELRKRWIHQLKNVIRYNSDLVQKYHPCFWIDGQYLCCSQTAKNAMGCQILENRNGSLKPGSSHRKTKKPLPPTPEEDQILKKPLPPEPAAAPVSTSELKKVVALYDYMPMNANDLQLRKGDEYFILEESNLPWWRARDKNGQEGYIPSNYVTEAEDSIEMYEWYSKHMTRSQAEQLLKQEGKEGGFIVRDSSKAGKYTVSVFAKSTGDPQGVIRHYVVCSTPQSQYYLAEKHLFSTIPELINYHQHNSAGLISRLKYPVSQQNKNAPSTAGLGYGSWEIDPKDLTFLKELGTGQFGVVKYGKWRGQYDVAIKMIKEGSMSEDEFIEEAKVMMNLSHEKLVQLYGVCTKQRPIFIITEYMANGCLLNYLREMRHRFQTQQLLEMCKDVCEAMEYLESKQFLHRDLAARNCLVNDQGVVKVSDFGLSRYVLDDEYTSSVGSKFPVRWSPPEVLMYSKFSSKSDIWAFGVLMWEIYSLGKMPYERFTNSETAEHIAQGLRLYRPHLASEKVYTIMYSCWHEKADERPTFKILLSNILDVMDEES
UniProt Q9NYY3, sequence (whole entry, looked up): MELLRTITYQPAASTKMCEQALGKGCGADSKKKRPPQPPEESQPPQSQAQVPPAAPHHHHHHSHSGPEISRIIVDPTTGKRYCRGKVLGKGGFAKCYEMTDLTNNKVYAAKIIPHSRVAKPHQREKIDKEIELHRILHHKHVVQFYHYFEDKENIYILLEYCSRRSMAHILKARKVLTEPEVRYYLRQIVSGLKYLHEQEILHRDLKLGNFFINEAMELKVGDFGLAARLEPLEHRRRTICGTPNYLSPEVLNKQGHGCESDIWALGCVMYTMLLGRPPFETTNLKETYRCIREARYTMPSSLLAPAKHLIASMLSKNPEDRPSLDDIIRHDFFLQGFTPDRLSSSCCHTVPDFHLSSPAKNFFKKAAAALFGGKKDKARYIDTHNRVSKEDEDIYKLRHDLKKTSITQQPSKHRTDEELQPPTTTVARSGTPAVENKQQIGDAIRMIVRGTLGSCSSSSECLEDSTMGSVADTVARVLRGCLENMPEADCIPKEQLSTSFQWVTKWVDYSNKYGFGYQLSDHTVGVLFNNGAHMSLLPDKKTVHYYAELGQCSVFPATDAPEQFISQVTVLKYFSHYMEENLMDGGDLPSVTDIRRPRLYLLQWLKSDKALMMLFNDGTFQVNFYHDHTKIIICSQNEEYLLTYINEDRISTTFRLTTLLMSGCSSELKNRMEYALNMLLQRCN

Sample 1
SMILES: CCN(CC)CCCCN1c2ccccc2Oc2ccc(Cl)cc21
Observed: enzyme activity
Mode: inhibitor
Tested at: 0.5 µM
Reference: control
Quantity: remaining activity
target = Cyclin-dependent kinase 9, with cyclin T1 (CDK9, Homo sapiens, UniProt P50750); result = 101%
target = Casein kinase II subunit alpha (CSNK2A1, Homo sapiens, UniProt P68400); result = 96.2%
target = Leucine-rich repeat serine/threonine-protein kinase 2 (LRRK2, Homo sapiens, UniProt Q5S007); result = 114%
target = Interleukin-1 receptor-associated kinase 4 (IRAK4, Homo sapiens, UniProt Q9NWZ3); result = 194%
target = Serine/threonine-protein kinase PLK2 (PLK2, Homo sapiens, UniProt Q9NYY3); result = 103%
target = Ephrin type-A receptor 5 (EPHA5, Homo sapiens, UniProt P54756); result = 109%
target = Tyrosine-protein kinase Lyn (LYN, Homo sapiens, UniProt P07948); result = 105%
target = cGMP-dependent protein kinase 1 (PRKG1, Homo sapiens, UniProt Q13976); result = 98.8%
target = Casein kinase I isoform alpha (CSNK1A1, Homo sapiens, UniProt P48729); result = 96.1%
target = RAC-gamma serine/threonine-protein kinase (AKT3, Homo sapiens, UniProt Q9Y243); result = 103%
target = Mitogen-activated protein kinase 12 (MAPK12, Homo sapiens, UniProt P53778); result = 97.4%
target = Serine/threonine-protein kinase WNK2 (WNK2, Homo sapiens, UniProt Q9Y3S1); result = 119%
target = Mitogen-activated protein kinase kinase kinase kinase 2 (MAP4K2, Homo sapiens, UniProt Q12851); result = 110%
target = Tyrosine-protein kinase BTK (BTK, Homo sapiens, UniProt Q06187); result = 99.2%
target = Serine/threonine-protein kinase Nek4 (NEK4, Homo sapiens, UniProt P51957); result = 110%
target = Serine/threonine-protein kinase Chk1 (CHEK1, Homo sapiens, UniProt O14757); result = 101%
target = MAP kinase-interacting serine/threonine-protein kinase 2 (MKNK2, Homo sapiens, UniProt Q9HBH9); result = 111%
target = Protein kinase C iota type (PRKCI, Homo sapiens, UniProt P41743); result = 105%
target = Mast/stem cell growth factor receptor Kit (KIT, Homo sapiens, UniProt P10721); result = 107%
target = Mitogen-activated protein kinase 13 (MAPK13, Homo sapiens, UniProt O15264); result = 94.3%
target = Dual specificity mitogen-activated protein kinase kinase 6 (MAP2K6, Homo sapiens, UniProt P52564); result = 102%
target = Mitogen-activated protein kinase kinase kinase 10 (MAP3K10, Homo sapiens, UniProt Q02779); result = 102%

Sample 2
Compound: CN(C(=O)c1ccn2ncc(-c3ccc(C(N)=O)cc3)c2c1)c1ccc(C#N)cn1
Organism: Cryptosporidium parvum
Technique: time-kill
Cells: HCT-8
Strain: nanoluciferase-expressing
Reading: higher = more parasites
Quantity: parasite luminescence
setting = 0.00914 µM, 8 h; result = 108000 RLU and 107000 RLU
setting = 0.2469 µM, 4 h; result = 78000 RLU and 68500 RLU
setting = 0.00305 µM, 4 h; result = 84500 RLU and 76200 RLU
setting = 0.00305 µM, 72 h; result = 147000 RLU and 171000 RLU
setting = 2.222 µM, 24 h; result = 83400 RLU and 108000 RLU

Sample 3
SMILES: CN(C)CC#Cc1ccc(OCCCc2sc(N3CCc4cccc(C(=O)Nc5nc6ccccc6s5)c4C3)nc2C(=O)O)c(F)c1
Observed: cell-free assay
Technique: competition with immobilised ligand
Tested at: 1 µM
Quantity: remaining binding
target = Mitogen-activated protein kinase 9 (MAPK9, Homo sapiens, UniProt P45984); result = 76%
target = Serine/threonine-protein kinase 25 (STK25, Homo sapiens, UniProt O00506); result = 100%
target = Mitogen-activated protein kinase 12 (MAPK12, Homo sapiens, UniProt P53778); result = 89%
target = Hormonally up-regulated neu tumor-associated kinase (HUNK, Homo sapiens, UniProt P57058); result = 56%
target = Atypical kinase COQ8B, mitochondrial (COQ8B, Homo sapiens, UniProt Q96D53); result = 99%
target = Tyrosine-protein kinase JAK1, JH1 (JAK1, Homo sapiens, UniProt P23458); result = 97%
target = Epidermal growth factor receptor (EGFR, Homo sapiens, UniProt P00533); result = 87%
target = Tyrosine-protein kinase CSK (CSK, Homo sapiens, UniProt P41240); result = 90%
target = Tyrosine-protein kinase receptor Tie-1 (TIE1, Homo sapiens, UniProt P35590); result = 85%
target = Ribosomal protein S6 kinase beta-1 (RPS6KB1, Homo sapiens, UniProt P23443); result = 100%
target = Dual specificity mitogen-activated protein kinase kinase 5 (MAP2K5, Homo sapiens, UniProt Q13163); result = 100%
target = Mitogen-activated protein kinase 7 (MAPK7, Homo sapiens, UniProt Q13164); result = 99%
target = Peripheral plasma membrane protein CASK (CASK, Homo sapiens, UniProt O14936); result = 100%
target = Interleukin-1 receptor-associated kinase 4 (IRAK4, Homo sapiens, UniProt Q9NWZ3); result = 100%
target = Ribosomal protein S6 kinase alpha-1, N-terminal kinase domain (RPS6KA1, Homo sapiens, UniProt Q15418); result = 81%

Other studies, line by line
Structure (SMILES) = COc1cc(C(=O)N2CCC(N3CCN(C)CC3)CC2)ccc1Nc1ncc2c(n1)N(C)c1ccccc1C(=O)N2C; target = Serine/threonine-protein kinase PLK1 (PLK1, Homo sapiens, UniProt P53350); assay = kinase activity, inhibitor, Invitrogen SelectScreen; quantity = IC50; result = 9.83 µM
Structure (SMILES) = COC(=O)[C@H]1[C@@H](O)[C@@]2(O)c3c(OC)cc(OS(=O)(=O)c4ccc(C)cc4)cc3O[C@@]2(c2ccc(OC)cc2)[C@@H]1c1ccccc1; target = Eukaryotic initiation factor 4A-III (Homo sapiens, UniProt P38919); assay = RNA clamping, fluorescence polarization; setting = concentration not given, mean of two replicates, together with: FAM-labelled poly r(AG)8 RNA; quantity = fluorescence polarization change; result = 4.4 mP

Some of these lines once more (sample 2):
setting = 0.00914 µM, 8 h; result = 108000 RLU and 107000 RLU
setting = 0.2469 µM, 4 h; result = 78000 RLU and 68500 RLU
setting = 0.00305 µM, 4 h; result = 84500 RLU and 76200 RLU
